Measured values from different studies.
Cell line: MIA PaCa-2

SMILES | observed | technique | item | time | IC50
Clc1cc(Br)c2c(c1)CCc1cccnc1C2=C1CCNCC1 | cell growth or viability | SRB | – | – | 18 µM
C=C1CC[C@@H]2O[C@@]2(C)CC[C@H]2[C@H]1C[C@]2(C)C(=O)/C=C/C(C)(O)CO (stereo partly shown) | cell growth or viability | CCK-8 | – | 72 h | 2.52 µM
Cc1ccc(C(C)C)cc1.F[P-](F)(F)(F)(F)F.O=C(N=P(c1ccccc1)(c1ccccc1)c1ccccc1)c1ccccn1.[Cl-].[Ru+2] | cell growth or viability | MTT | – | 24 h | 2.4 µM
CCCCCCCCCCCCCCCCCC(=O)Nc1ccn(C2OC(CO)C(O)C2(F)F)c(=O)n1 (stereo not shown) | cell growth or viability | resazurin | – | 48 h | 27.6 µM
COC(=O)[C@H]1[C@H]2C[C@H]3O[C@@]4(CCN3C[C@H]2C[C@@H](OC(=O)c2cc(OC)c(OC)c(OC)c2)[C@@H]1OC)C(=O)Nc1cc(OC)c(Br)cc14 | cell growth or viability | crystal violet | – | 72 h | 21.2 µM
Cc1ccc(C(C)C)cc1.O=C(N=P(c1ccccc1)(c1ccccc1)c1ccccc1)c1[c-]cccc1.[Cl-].[Ru+2] | cell growth or viability | MTT | – | 24 h | 8.2 µM
Nc1ccc(/C=C/C(=O)N2CCc3c(oc4c(-c5ccc(F)cc5)cc(-c5ccc(C(=O)N6CCC(F)(F)CC6)cc5)cc34)C2)cn1 | cell growth or viability | CCK-8 | – | 72 h | ~2 µM
COC(=O)[C@@H]1[C@@H](OC)[C@H](OC(=O)c2cc(OC)c(OC)c(OC)c2)C[C@@H]2CN3CC[C@]4(O[C@@H]3C(=O)[C@@H]21)C(=O)Nc1cc(OC)c(-c2ccc(C(F)(F)F)cc2)cc14 | cell growth or viability | crystal violet | – | 72 h | 1.9 µM
C1=CCCC=CCC1.F[P-](F)(F)(F)(F)F.[Pt+][c]1ccccc1P(=Nc1ccccc1)(c1ccccc1)c1ccccc1 | cell growth or viability | MTT | – | 24 h | 1.03 µM
O=C(CN1CCN(c2nsc3ccccc23)CC1)N1CCC(=C2c3ncccc3CCc3cc(Cl)cc(Br)c32)CC1 | cell growth or viability | SRB | – | – | < 15 µM
COC(=O)[C@@H](Cc1cn(Cc2ccc(C#N)cc2)nn1)NC(=O)OCC1c2ccccc2-c2ccccc21 | cell growth or viability | MTS | – | 72 h | 7.2 µM
O=C1c2cccc[c]2[Au-]([Cl])([Cl])[N+]1=P(c1ccccc1)(c1ccccc1)c1ccccc1 | cell growth or viability | MTT | – | 24 h | 81.8 µM
O=C1NC(c2ccc(N3CCOCC3)cc2)(c2ccsc2)CC(O)=C1Sc1ccccc1Cl (stereo not shown) | lactate production | – | lactate in supernatant | 6 h | > 2 µM
Cc1ccc(C(C)C)cc1.[Cl-].[Cl-].[Ru+2].c1ccc(P(=Nc2cccc3cccnc23)(c2ccccc2)c2ccccc2)cc1 | cell growth or viability | MTT | – | 24 h | 7 µM
O=C(CSc1nnc(-c2ccccc2)o1)N1CCC(=C2c3ncccc3CCc3cc(Cl)cc(Br)c32)CC1 | cell growth or viability | SRB | – | – | > 120 µM
COC(=O)[C@@H](Cc1cn(Cc2ccc(Cl)cc2)nn1)NC(=O)OCC1c2ccccc2-c2ccccc21 | cell growth or viability | MTS | – | 72 h | 1.14 µM
COC(=O)[C@H]1[C@H]2C[C@H]3O[C@@]4(CCN3C[C@H]2C[C@@H](OC(=O)c2cc(OC)c(OC)c(OC)c2)[C@@H]1OC)C(=O)Nc1cc(OC)c(-c2ccc(F)cc2)cc14 | cell growth or viability | crystal violet | – | 72 h | 7.04 µM
Cn1c(SCC(=O)N2CCC(=C3c4ncccc4CCc4cc(Cl)cc(Br)c43)CC2)nnc1-c1ccccc1 | cell growth or viability | SRB | – | – | 60 µM
C=C1CCC(O)C(C)=CCC2C1CC2(C)C(=O)C=CC(C)(C)O (stereo not shown) | cell growth or viability | CCK-8 | – | 72 h | 11 µM
COc1cccc2c1C(=O)c1c(O)c3c(c(O)c1C2=O)CC(O)(C(CO)=NNC(=O)CCCCC(=O)NNC(=O)CCCc1ccc(I)cc1)CC3OC1CC(N)C(O)C(C)O1 (stereo not shown) | cell growth or viability | resazurin | – | 72 h | 0.898 µM
C=C1CCC(O)C(C)=CCC2C1CC2(C)O (stereo not shown) | cell growth or viability | CCK-8 | – | 72 h | > 50 µM
COC(=O)[C@@H]1[C@@H](OC)[C@H](OC(=O)c2cc(OC)c(OC)c(OC)c2)C[C@@H]2CN3CC[C@]4(O[C@@H]3C(=O)[C@@H]21)C(=O)Nc1cc(OC)ccc14 | cell growth or viability | crystal violet | – | 72 h | 3.99 µM

Excerpt of the above:
SMILES | observed | technique | item | time | IC50
COC(=O)[C@@H](Cc1cn(Cc2ccc(Cl)cc2)nn1)NC(=O)OCC1c2ccccc2-c2ccccc21 | cell growth or viability | MTS | – | 72 h | 1.14 µM
